Measured values of several laboratories.
Each line is one published result; not all experiments were run side by side. “And” joins repeats or separate records; there may be more than shown. ± marks the error that the study gave.
TNKS2: Poly [ADP-ribose] polymerase tankyrase-2 (TNKS2, Homo sapiens, UniProt Q9H2K2)
Sequence of UniProt Q9H2K2 (whole entry, looked up): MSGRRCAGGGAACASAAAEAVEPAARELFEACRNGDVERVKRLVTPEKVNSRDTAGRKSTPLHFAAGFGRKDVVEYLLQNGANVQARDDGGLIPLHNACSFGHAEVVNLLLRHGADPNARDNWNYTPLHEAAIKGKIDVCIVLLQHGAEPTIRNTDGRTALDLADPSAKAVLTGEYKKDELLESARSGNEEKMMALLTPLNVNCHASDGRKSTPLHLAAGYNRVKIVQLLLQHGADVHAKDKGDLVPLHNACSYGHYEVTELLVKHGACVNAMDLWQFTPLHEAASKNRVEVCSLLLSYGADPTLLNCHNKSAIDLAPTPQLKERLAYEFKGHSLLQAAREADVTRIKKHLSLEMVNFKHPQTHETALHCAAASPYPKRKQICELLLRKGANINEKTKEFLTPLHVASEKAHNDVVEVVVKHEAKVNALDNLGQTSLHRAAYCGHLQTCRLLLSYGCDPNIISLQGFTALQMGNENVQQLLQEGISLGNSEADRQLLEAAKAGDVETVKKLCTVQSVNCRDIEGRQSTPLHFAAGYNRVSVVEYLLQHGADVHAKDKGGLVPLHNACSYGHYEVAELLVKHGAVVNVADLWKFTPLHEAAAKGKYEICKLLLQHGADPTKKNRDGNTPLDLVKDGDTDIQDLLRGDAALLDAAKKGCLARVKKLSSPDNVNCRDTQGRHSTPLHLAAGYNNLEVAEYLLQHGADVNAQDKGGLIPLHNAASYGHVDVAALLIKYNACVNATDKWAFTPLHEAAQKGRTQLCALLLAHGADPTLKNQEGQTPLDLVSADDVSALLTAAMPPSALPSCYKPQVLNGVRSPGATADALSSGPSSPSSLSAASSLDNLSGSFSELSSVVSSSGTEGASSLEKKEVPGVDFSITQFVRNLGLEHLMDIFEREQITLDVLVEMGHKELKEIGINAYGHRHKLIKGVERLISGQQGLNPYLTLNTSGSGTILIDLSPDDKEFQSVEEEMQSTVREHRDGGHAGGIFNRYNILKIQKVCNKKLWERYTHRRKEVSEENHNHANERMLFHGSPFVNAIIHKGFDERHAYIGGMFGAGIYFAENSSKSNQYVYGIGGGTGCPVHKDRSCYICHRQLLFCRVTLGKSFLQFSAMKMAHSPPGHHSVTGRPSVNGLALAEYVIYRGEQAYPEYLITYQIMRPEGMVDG
Uridine nucleoside ribohydrolase: Uridine nucleoside ribohydrolase (Trichomonas vaginalis, UniProt A2FTT0)
TTBK2: Tau-tubulin kinase 2 (TTBK2, Homo sapiens, UniProt Q6IQ55)
Sequence of UniProt Q6IQ55 (whole entry, looked up): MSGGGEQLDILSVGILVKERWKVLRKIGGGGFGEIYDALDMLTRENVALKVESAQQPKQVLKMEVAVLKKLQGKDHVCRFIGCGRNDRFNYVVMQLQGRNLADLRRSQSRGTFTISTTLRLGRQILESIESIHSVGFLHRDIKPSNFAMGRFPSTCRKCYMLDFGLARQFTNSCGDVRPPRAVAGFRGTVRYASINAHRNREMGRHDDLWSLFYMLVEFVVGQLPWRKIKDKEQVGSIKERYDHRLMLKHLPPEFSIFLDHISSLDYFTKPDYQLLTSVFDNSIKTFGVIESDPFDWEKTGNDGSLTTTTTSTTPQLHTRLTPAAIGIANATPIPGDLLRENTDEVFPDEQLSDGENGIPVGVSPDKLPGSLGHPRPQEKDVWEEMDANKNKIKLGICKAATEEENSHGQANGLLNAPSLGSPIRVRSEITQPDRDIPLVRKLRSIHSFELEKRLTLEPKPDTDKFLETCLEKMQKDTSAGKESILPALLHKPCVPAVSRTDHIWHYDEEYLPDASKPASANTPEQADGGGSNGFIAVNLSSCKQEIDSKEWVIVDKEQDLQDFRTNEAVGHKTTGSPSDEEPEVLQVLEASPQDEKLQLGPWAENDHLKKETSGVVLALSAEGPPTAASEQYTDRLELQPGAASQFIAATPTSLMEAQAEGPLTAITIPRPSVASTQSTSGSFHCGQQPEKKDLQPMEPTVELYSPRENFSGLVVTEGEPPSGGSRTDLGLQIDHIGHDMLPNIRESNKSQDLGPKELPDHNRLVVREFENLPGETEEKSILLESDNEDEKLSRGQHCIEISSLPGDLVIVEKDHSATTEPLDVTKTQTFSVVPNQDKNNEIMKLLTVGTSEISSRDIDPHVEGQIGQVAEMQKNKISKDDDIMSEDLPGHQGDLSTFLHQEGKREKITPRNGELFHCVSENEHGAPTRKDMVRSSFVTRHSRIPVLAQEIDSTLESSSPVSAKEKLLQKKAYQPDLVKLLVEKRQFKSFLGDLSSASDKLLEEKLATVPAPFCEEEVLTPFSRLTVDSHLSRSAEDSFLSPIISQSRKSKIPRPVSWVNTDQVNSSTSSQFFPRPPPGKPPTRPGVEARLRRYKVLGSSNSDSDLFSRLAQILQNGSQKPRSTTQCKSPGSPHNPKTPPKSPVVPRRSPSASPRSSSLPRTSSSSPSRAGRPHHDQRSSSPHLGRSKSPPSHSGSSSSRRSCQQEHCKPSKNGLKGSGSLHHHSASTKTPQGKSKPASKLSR
NPY2R: Neuropeptide Y receptor type 2 (NPY2R, Homo sapiens, UniProt P49146)
Sequence of UniProt P49146 (whole entry, looked up): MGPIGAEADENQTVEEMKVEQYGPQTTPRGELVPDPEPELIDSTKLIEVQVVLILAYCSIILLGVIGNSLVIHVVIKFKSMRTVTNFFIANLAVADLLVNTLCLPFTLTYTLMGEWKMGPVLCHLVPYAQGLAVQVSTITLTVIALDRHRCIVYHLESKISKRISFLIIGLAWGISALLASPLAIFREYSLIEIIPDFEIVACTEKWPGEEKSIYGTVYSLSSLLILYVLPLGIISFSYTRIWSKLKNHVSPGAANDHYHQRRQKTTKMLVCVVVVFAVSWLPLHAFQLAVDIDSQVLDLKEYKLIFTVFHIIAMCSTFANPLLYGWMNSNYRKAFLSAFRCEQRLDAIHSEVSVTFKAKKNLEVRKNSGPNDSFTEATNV
MMP2: 72 kDa type IV collagenase (MMP2, Homo sapiens, UniProt P08253)
Sequence of UniProt P08253 (whole entry, looked up): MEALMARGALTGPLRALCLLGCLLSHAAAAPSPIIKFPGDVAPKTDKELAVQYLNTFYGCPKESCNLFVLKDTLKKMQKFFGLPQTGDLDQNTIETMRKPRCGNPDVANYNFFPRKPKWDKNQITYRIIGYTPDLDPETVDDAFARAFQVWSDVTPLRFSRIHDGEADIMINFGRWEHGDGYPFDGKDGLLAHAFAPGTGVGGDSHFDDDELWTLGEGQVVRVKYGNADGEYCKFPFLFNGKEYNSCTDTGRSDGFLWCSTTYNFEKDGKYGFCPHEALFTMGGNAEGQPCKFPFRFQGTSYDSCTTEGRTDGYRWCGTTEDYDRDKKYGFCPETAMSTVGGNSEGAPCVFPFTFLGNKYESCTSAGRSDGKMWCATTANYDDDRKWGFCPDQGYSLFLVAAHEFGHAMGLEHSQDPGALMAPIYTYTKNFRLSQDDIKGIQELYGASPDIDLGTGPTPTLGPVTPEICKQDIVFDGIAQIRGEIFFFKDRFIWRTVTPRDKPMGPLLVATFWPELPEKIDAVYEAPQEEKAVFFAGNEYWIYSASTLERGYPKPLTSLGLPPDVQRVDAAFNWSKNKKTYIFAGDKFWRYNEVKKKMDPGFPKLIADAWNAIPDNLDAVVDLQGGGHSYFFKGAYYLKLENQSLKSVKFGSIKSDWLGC
HDAC9: Histone deacetylase 9 (HDAC9, Homo sapiens, UniProt Q9UKV0)
SSTR1: Somatostatin receptor type 1 (SSTR1, Homo sapiens, UniProt P30872)
Sequence of UniProt P30872 (whole entry, looked up): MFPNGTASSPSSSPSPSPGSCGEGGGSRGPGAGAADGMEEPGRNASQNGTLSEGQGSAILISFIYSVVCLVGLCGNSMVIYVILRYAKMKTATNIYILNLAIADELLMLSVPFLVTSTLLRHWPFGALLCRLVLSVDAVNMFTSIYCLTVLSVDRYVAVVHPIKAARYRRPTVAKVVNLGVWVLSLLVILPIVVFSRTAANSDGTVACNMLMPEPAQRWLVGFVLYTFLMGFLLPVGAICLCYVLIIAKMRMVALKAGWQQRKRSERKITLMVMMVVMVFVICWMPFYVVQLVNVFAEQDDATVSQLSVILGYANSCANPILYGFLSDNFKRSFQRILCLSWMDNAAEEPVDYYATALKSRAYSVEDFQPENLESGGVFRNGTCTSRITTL
HTR1D: 5-hydroxytryptamine receptor 1D (HTR1D, Homo sapiens, UniProt P28221)
Sequence of UniProt P28221 (whole entry, looked up): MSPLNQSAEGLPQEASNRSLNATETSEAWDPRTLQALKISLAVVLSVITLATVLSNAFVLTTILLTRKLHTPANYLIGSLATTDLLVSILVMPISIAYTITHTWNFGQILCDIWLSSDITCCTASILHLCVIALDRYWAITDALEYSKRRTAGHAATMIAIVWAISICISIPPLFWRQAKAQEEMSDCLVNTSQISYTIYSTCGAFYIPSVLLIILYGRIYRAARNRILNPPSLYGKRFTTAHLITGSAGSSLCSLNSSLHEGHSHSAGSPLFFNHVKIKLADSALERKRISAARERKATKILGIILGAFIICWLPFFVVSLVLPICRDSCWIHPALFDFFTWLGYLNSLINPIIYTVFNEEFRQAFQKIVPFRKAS
Alpha-amylase: Alpha-amylase (Bos taurus, UniProt Q3MHH8)
Sequence of UniProt Q9NRA0 (whole entry, looked up): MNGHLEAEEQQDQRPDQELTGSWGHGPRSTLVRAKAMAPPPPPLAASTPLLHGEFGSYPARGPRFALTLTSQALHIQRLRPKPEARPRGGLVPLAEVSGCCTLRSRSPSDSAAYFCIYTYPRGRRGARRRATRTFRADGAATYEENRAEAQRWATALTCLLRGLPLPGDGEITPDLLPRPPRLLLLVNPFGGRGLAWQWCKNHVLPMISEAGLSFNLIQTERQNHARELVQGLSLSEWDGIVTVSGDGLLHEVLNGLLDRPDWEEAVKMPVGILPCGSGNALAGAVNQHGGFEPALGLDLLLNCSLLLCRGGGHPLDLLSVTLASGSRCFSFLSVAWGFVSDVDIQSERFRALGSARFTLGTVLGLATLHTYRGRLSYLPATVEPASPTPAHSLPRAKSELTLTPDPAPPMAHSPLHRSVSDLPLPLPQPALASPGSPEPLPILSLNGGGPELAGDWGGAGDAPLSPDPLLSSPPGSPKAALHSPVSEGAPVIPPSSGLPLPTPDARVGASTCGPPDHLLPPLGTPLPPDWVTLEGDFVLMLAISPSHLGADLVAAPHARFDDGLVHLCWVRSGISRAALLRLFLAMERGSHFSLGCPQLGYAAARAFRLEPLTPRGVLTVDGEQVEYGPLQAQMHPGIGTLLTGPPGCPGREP

C[Si]1(C[C@H](CN)CC(=O)O)CCCC1
inhibition (alpha1 adrenergic receptor, rat; binding, radioligand binding; 70 µM, together with: [3H]prazosin): -4%

Cc1cc(C(=O)NCCNC(=O)c2cccc(COc3ccccc3C(N)=O)c2)n[nH]1
inhibition (TNKS2; enzyme activity, inhibitor; 50 nM): 100%

COc1ccc(CN2CC3CCCCN3C2=O)cc1 (stereo not shown)
inhibition (Uridine nucleoside ribohydrolase; inhibitor, 19F NMR jump dilution; 2 µM, 10-fold dilution): 57.2%

O=[N+]([O-])c1ccc(Cn2cc(Cn3cc(CO)nn3)nn2)cc1
inhibition (Pleckstrin homology domain-containing family A member 1, PH domain (Homo sapiens, UniProt Q9HB21); PI(3,4)P2 binding to PH domain, SPR; 50 µM): 29 ± 5%

NC(=O)[C@@H](O)C[C@H]1CCc2sc3ncnc(O[C@H]4CC[C@H](N5CCOCC5)CC4)c3c21
inhibition (TTBK2; enzyme activity, inhibitor; 10 µM): 1%

CO[C@@H](C)c1c(NC(=O)Nc2cnc(-n3nccn3)c(C(F)(F)F)c2)cnc2sc(C)nc12
inhibition (NPY2R; ligand displacement, radioligand; 10 µM): 2.7%

C=CC(=O)Nc1cccc(-c2cnc3[nH]cc(C(=O)NC(C)(C)C)c3n2)c1
inhibition (Sphingosine kinase 2 (SPHK2, Homo sapiens, UniProt Q9NRA0); kinase activity; 0.1 µM): 8% and -2%

Nc1nc2nn[nH]c2c(=O)[nH]1
translation activity (Trypanosoma cruzi; reporter mRNA translation, inhibitor, measured: Renilla luciferase mRNA; cell-free extract; concentration not given, test 1; reference: positive over negative control): 77.6%

Cc1cccnc1-c1cccc(C#N)c1
inhibition (Uridine nucleoside ribohydrolase; 19F NMR; 50 µM): 100%

O=C(CNc1nc(Cl)nc(NNC(=O)c2ccc(Nc3nc(Nc4ccc(C(=O)NNc5nc(Cl)nc(NCC(=O)NO)n5)cc4)nc(Nc4ccc(C(=O)NNc5nc(Cl)nc(NCC(=O)NO)n5)cc4)n3)cc2)n1)NO
inhibition (MMP2; enzyme activity, inhibitor, fluorescence; 0.0001 µg/mL): 28%

CNS(=O)(=O)Nc1nccc(Cc2c(C)c3ccc(Oc4ncccc4F)cc3oc2=O)c1F
IC50 (NCI-H1581; cell viability; 7 days): 137 nM

CC(C)(C)c1ccccc1OS(=O)(=O)Oc1cccc(C(=O)NO)c1
inhibition (HDAC9; enzyme activity, inhibitor, fluorescence; 10 µM): 15%

CCn1cc(-c2cccc(C(F)(F)F)c2)c2sc(C(=N)NC3CCS(=O)(=O)CC3)cc2c1=O
inhibition (Bromodomain-containing protein 9 (BRD9, Homo sapiens, UniProt Q9H8M2); protein-protein interaction, inhibitor, AlphaScreen; 1 µM): 99%

Cn1cc(-c2ccc(C(N)=O)cc2)cn1
inhibition (Uridine nucleoside ribohydrolase; 19F NMR; 50 µM): 100%

C[Si](C)(C)C[C@@H](CN)CC(=O)O
inhibition (SSTR1; ligand displacement, radioligand; 75 µM): -6%

Cc1cccnc1-c1ccc(C(N)=O)cc1
inhibition (Uridine nucleoside ribohydrolase; 19F NMR; 50 µM, together with: 0.01% Triton X-100): 100%

COc1ccc2nc(C)ccc2c1Nc1sn(C)c(=O)c1C#N
inhibition (TNKS2; enzyme activity, inhibitor; 10 µM): 1%

O=C1c2sc(-c3ccc(N4CCC(CO)CC4)nc3F)nc2CCN1c1cccnc1
inhibition (Corticotropin-releasing factor receptor 1 (CRHR1, Homo sapiens, UniProt P34998); ligand displacement, radioligand; 1 µM): -9%

OC(COc1ccc2cc(Br)ccc2c1)Cn1ccnc1 (stereo not shown)
translation activity (Trypanosoma cruzi; reporter mRNA translation, inhibitor, measured: Renilla luciferase mRNA; cell-free extract; concentration not given, test 1; reference: positive over negative control): 107%

C/C=C/C(=O)Nc1ccc2nc(NCCCCCN(C)C)nc(NCCCCCCN(C)C)c2c1
inhibition (N-lysine methyltransferase SMYD2 (SMYD2, Homo sapiens, UniProt Q9NRG4); enzyme activity, inhibitor, radiometric; 50 µM): 63%

COc1ncc2nc(C)n(Cc3ncc(S(N)(=O)=O)cc3F)c2c1-c1ccccc1
inhibition (cGMP-inhibited 3',5'-cyclic phosphodiesterase 3A (PDE3A, Homo sapiens, UniProt Q14432); enzyme activity, inhibitor; 10 µM, safety panel): -3.28%

Cc1c(OS(=O)(=O)Oc2ccccc2-c2ccccc2)cccc1C(=O)NO
inhibition (Protein deacetylase HDAC6 (HDAC6, Homo sapiens, UniProt Q9UBN7); enzyme activity, inhibitor, fluorescence; 10 µM): 30%

Cc1ccnc(OC[C@H]2CN(CCN3CCc4ccccc43)CCO2)c1
inhibition (HTR1D; radioligand binding; concentration not given, together with: [3H]5-CT): 22.9%

O=C(NCc1cc(F)cc(F)c1)[C@@]1(O)CCN(c2ccc3[nH]ccc3c2)C1=O
inhibition (Methionine aminopeptidase 1 (METAP1, Homo sapiens, UniProt P53582); enzyme activity; 3e-09 and 100 µM): no inhibition

COC1CN([C@H]2CC[C@H]([C@@]3(C)Oc4c(Cl)cc(C(=O)NCc5c(SC)cc(C)[nH]c5=O)c(C)c4O3)CC2)C1
log2 fold change (RNA-seq, measured: PTX3 mouse homolog; mouse, HT-1376 xenograft, whole blood; dose not given; reference: vehicle): 2.87

O=C(CCCc1ccc2c(c1)OCCO2)NCCNC(=O)Cn1c(=O)[nH]c(=O)c2ccccc21
inhibition (TNKS2; enzyme activity, inhibitor; 5 nM): 0%

CC(=O)Nc1ccccc1-c1ccc(O)cc1
inhibition (Uridine nucleoside ribohydrolase; 19F NMR; 50 µM): 100%

Cc1nc2c(F)cc(-c3nc(Nc4ccc(CNC(=O)CCCCCCC(=O)NO)cc4)ncc3F)cc2n1C(C)C
inhibition (CaMKIγ(h) human kinase; enzyme activity; 1 µM): 72%

O=C1c2sc(-c3ccc(N4CCC(F)C4)nc3F)nc2CCN1c1cccnc1 (stereo not shown)
inhibition (SSTR1; ligand displacement, radioligand; 1 µM): -1%

CN(C)C/C=C/C(=O)Nc1ccc2nc(NCCCCCN(C)C)nc(NCCCCCCN(C)C)c2c1
inhibition (Histone-lysine N-methyltransferase PRDM9 (PRDM9, Homo sapiens, UniProt Q9NQV7); enzyme activity, inhibitor, radiometric; 50 µM): 84%

O=C(NCCCCc1ccccc1)n1c(=O)oc2cc(-c3ccc(F)cc3)ccc21
inhibition (MMP2; enzyme activity, inhibitor; 10 µM): 7.2%

CC1=NN(c2ccccc2F)C(=O)/C1=N\Nc1ccc(S(N)(=O)=O)cc1
inhibition (Alpha-amylase; enzyme activity, inhibitor, glucose oxidase; 10 µg/mL, together with: dextrin): 6.334 ± 0.000334%

Nc1ncc(-c2cc(-c3cnn(CC(F)(F)F)c3)ncc2F)nc1C(=O)NC1CNCC(F)C1 (stereo not shown)
remaining binding (PIK3CD; KINOMEscan; 1 µM; reference: DMSO control): 83%

O=C(CC1CC2CCC1C2)NCCNC(=O)Cn1c(=O)[nH]c(=O)c2ccccc21 (stereo not shown)
inhibition (TNKS2; enzyme activity, inhibitor; 0.5 µM): 59%

O=C(CN1CCO[C@@H](COc2cccc(Cl)c2)C1)N1CCc2ccccc21
inhibition (HTR1D; radioligand binding; concentration not given, together with: [3H]5-CT): 20.9%

CC(=O)Nc1ccc(F)cc1-c1ccncc1
inhibition (Uridine nucleoside ribohydrolase; 19F NMR; 100 µM, together with: 0.01% Triton X-100): 100%

COCC(=O)N1CCc2cc(-c3csc(NC(=O)c4cc(OC)cc(OC)c4)n3)ccc21
inhibition (NPY2R; cell-free assay; 10 µM): -1%

CCn1cc(C(=O)O)c(=O)c2c(N)c(F)c(NC3CCCCC3)cc21
inhibition (TTBK2; kinase activity; 0.1 µM, together with: ATP at Km): 12.6%

CN(Cc1ccc(/C=C/C(=O)NO)cc1)CC12CC3CC(CC(C3)C1)C2
inhibition (somatostatin receptor; radioligand binding, radioligand displacement; 0.05 µM, together with: agonist radioligand 50 nM): -3%

CC1=NN(c2cccc(F)c2)C(=O)/C1=N\Nc1ccc(S(N)(=O)=O)cc1
inhibition (Alpha-amylase; enzyme activity, inhibitor, glucose oxidase; 50 µg/mL, together with: dextrin): 18%

CC[C@H](C)[C@@H]1NC(=O)[C@H](Cc2ccccc2C(F)(F)F)NC(=O)CCSCc2cccc(n2)CSCCCNC(=O)[C@H](CCCCCC(=O)NO)NC1=O
inhibition (HDAC9; enzyme activity, inhibitor, fluorogenic; 30 µM): 20%

C=CC(=O)Nc1cccc(Cn2ncc3cnc(Nc4cnn(CCOC)c4)nc32)c1
percent of control (MAST1 human; binding, KINOMEscan; 100 nM; lower = stronger binding): 100%

CCc1ccc(N2CCC(O)C2)cc1 (stereo not shown)
inhibition (Uridine nucleoside ribohydrolase; 19F NMR; 100 µM, together with: 0.01% Triton X-100): 34.7%

C=CC(=O)Nc1cc(-c2nn(C3CCN(CCNC(=O)[C@H](C)CCC45CC6CC(CC(C6)C4)C5)CC3)c3ncnc(N)c23)ccc1Oc1ccccc1
inhibition (Diacylglycerol kinase eta (DGKH, Homo sapiens, UniProt Q86XP1); inhibitor, KiNativ profiling; biochemical; 2 µM): 7.6%

O=C(CNc1nc(NNC(=O)c2ccc(Nc3nc(Nc4ccc(C(=O)NNc5nc(NCC(=O)NO)nc(N6CCCCC6)n5)cc4)nc(Nc4ccc(C(=O)NNc5nc(NCC(=O)NO)nc(N6CCCCC6)n5)cc4)n3)cc2)nc(N2CCCCC2)n1)NO
inhibition (MMP2; enzyme activity, inhibitor, fluorescence; 0.001 µg/mL): 70%

CN1CCN(CC(=O)c2ccccc2)C1=O
inhibition (Uridine nucleoside ribohydrolase; 19F NMR; 100 µM): 89.8%

COc1ccc(C(=O)Nc2c(-c3cccs3)nc3ccccn23)cc1
inhibition (HTR1D; ligand displacement, radioligand; 10 µM): < 50%

Cc1ccc(-c2nn(-c3ccc(S(C)(=O)=O)cc3)cc2/C=N/N=C2/NC(=O)CS2)cc1
inhibition (Epidermal growth factor receptor (EGFR, Homo sapiens, UniProt P00533); kinase activity, inhibitor; 0.1 µM): 34.8%

N=C(N)NCCCC(NC(=O)C(CC(=O)NO)Cc1ccc2ccccc2c1)C(=O)NC(Cc1c[nH]c2ccccc12)C(=O)NC(CCC(=O)O)C(N)=O (stereo not shown)
inhibition (Stromelysin-1 (MMP3, Homo sapiens, UniProt P08254); 1 µM): 6%

Repeated from above:
O=C(CCCc1ccc2c(c1)OCCO2)NCCNC(=O)Cn1c(=O)[nH]c(=O)c2ccccc21
inhibition (TNKS2; enzyme activity, inhibitor; 5 nM): 0%

C=CC(=O)Nc1cccc(Cn2ncc3cnc(Nc4cnn(CCOC)c4)nc32)c1
percent of control (MAST1 human; binding, KINOMEscan; 100 nM; lower = stronger binding): 100%

C[Si](C)(C)C[C@@H](CN)CC(=O)O
inhibition (SSTR1; ligand displacement, radioligand; 75 µM): -6%
